Published values gathered from unrelated publications.
Lines come from different studies, so protocols differ.
Matrix: plasma

SMILES | test | system | setting | measurement | result
COC(=O)N[C@@H](C)CNc1nccc(-c2cn(C(C)C)nc2-c2cc(Cl)cc(NS(C)(=O)=O)c2F)n1 |  | humans | oral, day 14, steady state, with: binimetinib | half-life geometric mean | 3.58 h
Cc1cc(C)c(CNC(=O)c2cc(Cl)c3c(c2C)O[C@@](C)([C@H]2CC[C@H](N(C)C)CC2)O3)c(=O)[nH]1 |  | human | oral, 200 mg, cycle 1 day 1 | half-life unbound drug | 8.81 h
O=C(O)CCC(=O)O.[2H]C([2H])([2H])Oc1cc(C)c2[nH]ccc2c1CN1CC[C@@H](C2CC2)C[C@H]1c1ccc(C(=O)O)cc1 | LC-MS/MS, mean | human | 100 mg, single dose, fasting | half-life | 23.6 h
Cc1nc(-c2ccc(OCC(C)C)c(C#N)c2)sc1C(=O)O |  | human | oral, 10 mg once daily, with: verinurad 5 mg | half-life | 7.14 h
COc1ncc(-c2nc3c(n2C(C)C)[C@H](c2ccc(Cl)cc2)N(c2cc(Cl)cn(C)c2=O)C3=O)c(OC)n1 | LC-MS/MS, noncompartmental | human | oral, 25 mg, low-dose, median | half-life | 12.4 h
N#Cc1ccc2c(c1)[C@H]1CCCN(C(=O)c3ccc4[nH]cnc4c3)[C@H]1C2 |  | human | oral, 20 mg once daily, steady state | half-life steady state | 109 h
CC(C)(Sc1ccncc1-c1ccc(C#N)c2ccccc12)C(=O)O |  | human | oral, 10 mg once daily, with: febuxostat 20 mg | half-life | 14.6 h
COc1cc(C(=O)NC2CCN(C)CC2)c(F)cc1Nc1ncc(C(F)(F)F)c(Oc2cccc3c2C(=O)N(C)C3)n1 |  | human, Japanese | oral, 200 mg once daily multiple dose, geometric mean | half-life steady state | 22 h
CO[C@H]1C[C@@H]2CC[C@@H](C)[C@@](O)(O2)C(=O)C(=O)N2CCCC[C@H]2C(=O)O[C@H]([C@H](C)C[C@@H]2CC[C@@H](OC(=O)NCCOCCOCCOCCOCCOCCOCCOCCOCCC(=O)N3CCc4cc(Cn5nc(-c6ccc7oc(N)nc7c6)c6c(N)ncnc65)ccc4C3)[C@H](OC)C2)C[C@@H](O)[C@H](C)/C=C(\C)[C@@H](O)[C@@H](OC)C(=O)[C@H](C)C[C@H](C)/C=C/C=C/C=C/1C |  | human | intravenous, 6 mg, cycle 1 day 15, arithmetic mean | half-life | 4 h
Cc1cc(Nc2ncnc3ccc(NC4=NC(C)(CO)CO4)cc23)ccc1Oc1ccn2ncnc2c1 (stereo not shown) |  | human | tucatinib, day 10, with: rifampin once daily | half-life (arithmetic mean) | 8.25 h

Excerpt of the above:
SMILES | test | system | setting | measurement | result
COC(=O)N[C@@H](C)CNc1nccc(-c2cn(C(C)C)nc2-c2cc(Cl)cc(NS(C)(=O)=O)c2F)n1 |  | humans | oral, day 14, steady state, with: binimetinib | half-life geometric mean | 3.58 h
